Measured values from different studies.
Protocols differ between the studies behind these lines. Several values in a cell are separate wells, animals, samples, runs or records. Numbers after ± are the reported error.

NC(=O)N/N=C/c1ccc(OCc2ccccc2)cc1  viability (IMR-32; MTT; 400 µg/mL, 24 h; baseline: untreated control): 17.4%
O=c1n(CCNCCOS(=O)(=O)c2ccccc2)c(=O)n(S(=O)(=O)c2ccccc2)c(=O)n1S(=O)(=O)c1ccccc1  viability (HUVEC; cell growth or viability, MTT; 50 µg/mL, 72 h): 15.6%
O=C(O)CC[C@H](NC(=O)[C@H](CCC(=O)O)NC(=O)[C@H](CCC(=O)O)NC(=O)[C@H](CCC(=O)O)NC(=O)[C@H](CCC(=O)O)NC(=O)CNC(=O)[C@H](CCC(=O)O)NC(=O)CNC(=O)[C@H](CCC(=O)O)NC(=O)[C@@H](Cc1ccccc1)NC(=O)[C@@H](Cc1ccccc1)NC(=O)Cc1ccc2ccccc2c1)C(=O)O  viability (SAOS-2; MTT; 400 µM, 3 days): ~80%
CNC(=O)C[C@H](Cc1ccccc1)NC(=O)[C@@H](Cc1ccc(Cl)cc1Cl)NC(=O)[C@H](N)Cc1ccccc1C#N  viability (Huh-7-ACE2; CellTiter-Glo; 0.00153 µM, 48 h, unit not given; baseline: DMSO): 1.15 and 0.991 and 1.14
CC1(C)CC(=O)c2c(C(F)(F)F)nn(-c3ccc(C(N)=O)c(N[C@H]4CC[C@H](OC(=O)CN)CC4)c3)c2C1  viability (HEK-293T-ACE2-TMPRSS2; cell count; 10 µM): 81%
C[C@@H]1O[C@@H](O[C@@H]2[C@@H](O)[C@H](O)[C@@H](CO)O[C@H]2c2c(O)cc(O)c3c(=O)cc(-c4ccc(O)cc4)oc23)[C@H](O)[C@H](O)[C@H]1O  viability (Caco-2; CCK-8; 20 µM, 24 h): 110%
Cc1n[nH]c(C)c1CCCOc1cc(OCCCCCCNCCOCCOCCn2cc(CNc3ccc(C(=O)O)cc3)nn2)cc(C(=O)O)c1  viability (Hep3B; cell growth or viability, MTT; 100 µM, 72 h): 100%
CC[C@H](C)[C@H](NC(=O)[C@@H](NC(=O)[C@H](CCCCN)NC(=O)[C@H](CCC(N)=O)NC(=O)[C@@H](NC(=O)[C@H](Cc1c[nH]c2ccccc12)NC(=O)[C@H](CCCCN)NC(=O)[C@H](CCCCN)NC(=O)[C@H](CC(C)C)NC(=O)[C@H](CCCNC(=N)N)NC(=O)[C@H](Cc1ccccc1)NC(=O)[C@@H](N)C(C)C)[C@@H](C)CC)C(C)C)C(N)=O  viability (RAW264.7; WST-8; 32 µM, 24 h; baseline: control): < 50%
CNC(=O)C[C@H](Cc1ccc(F)cc1)NC(=O)[C@@H](Cc1ccc(Cl)cc1Cl)NC(=O)[C@H](N)Cc1ccccc1C#N  viability (Huh-7-ACE2; CellTiter-Glo; 0.000191 µM, 48 h, unit not given; baseline: DMSO): 1.03 and 0.975 and 0.929
CC(C)C[C@H](NC(=O)CNC(=O)[C@H](CO)NC(=O)[C@@H](N)CO)C(=O)N[C@@H](Cc1ccccc1)C(=O)N1CCC[C@H]1C(=O)N[C@@H](Cc1ccccc1)C(=O)N[C@@H](CC(C)C)C(=O)N[C@H](C(=O)N[C@@H](CC(C)C)C(=O)N[C@@H](CC(C)C)C(=O)N[C@@H](C)C(=O)N[C@@H](CC(C)C)C(=O)NCC(=O)N[C@H](C(=O)N[C@@H](CC(C)C)C(=O)N[C@@H](C)C(=O)N1CCC[C@H]1C(=O)N[C@@H](Cc1c[nH]c2ccccc12)C(=O)N[C@@H](C)C(=O)N[C@H](C(=O)N[C@@H](CCC(=O)O)C(=O)NCC(=O)N[C@@H](CO)C(=O)NCC(=O)N[C@@H](CCCCN)C(=O)O)C(C)C)[C@@H](C)O)C(C)C  viability (RAW264.7; MTT; 10 µg/mL, 24 h; baseline: vehicle): 58 ± 1.73%
CCOc1ccc(CN2CC[C@H]2C(=O)NC)cc1-c1cccc(C(=O)NC[C@@H]2COC(C)(C)O2)c1  viability (Huh-7-ACE2; CellTiter-Glo; 0.00305 µM, 48 h, unit not given; baseline: DMSO): 1.09 and 0.987
CC(C)[C@H](CNC(=O)[C@@H](NC(=O)c1cccc(-c2ccccc2)n1)[C@@H](C)O)B(O)O  viability (HEK-293T-ACE2-TMPRSS2; cell count; 10 µM): 68%
